Results pooled from the literature.
Each numbered part is a random draw from the data of one study; scales do not carry over between parts. Substitutions count along the parent as printed.

Set 1
Target: CCNB2, cyclin fold, Cln2 fusion (human)
Method: yeast growth competition, sequencing
Matrix: yeast
Setting: strong parent motif
Baseline: not given
Direction: higher = stronger binding
Parent: viral docking peptide; TSVRRALFTGGSD; partner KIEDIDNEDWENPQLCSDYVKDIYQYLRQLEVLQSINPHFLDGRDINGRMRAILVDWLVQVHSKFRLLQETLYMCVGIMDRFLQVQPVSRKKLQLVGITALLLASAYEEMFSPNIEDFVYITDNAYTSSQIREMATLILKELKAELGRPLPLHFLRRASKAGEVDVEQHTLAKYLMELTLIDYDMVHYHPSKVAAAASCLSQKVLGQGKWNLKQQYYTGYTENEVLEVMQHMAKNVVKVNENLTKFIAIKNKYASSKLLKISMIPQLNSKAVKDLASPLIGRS
| Change | normalised enrichment score |
| --- | --- |
| F8P | 0.32 |
| S2I | 0.407 |
| S2C | 0.689 |
| G10N | 1.29 |
| S2G | 0.752 |
| A6I | 0.792 |
| A6E | 0.641 |
| R5G | 0.163 |
| A6L | -0.0302 |
| V3W | 0.245 |
| F8K | 0.163 |
| G11S | 0.727 |
| S12T | 0.45 |
| R5H | 0.413 |
| S12K | 0.428 |
| G11T | 1.04 |
| R5Q | 0.508 |
| V3F | 0.658 |
| G10V | 0.385 |
| G11D | 1.39 |
| G10C | 0.73 |
| G10F | 0.116 |
| L7M | 0.902 |
| R4S | 0.578 |
| F8D | 0.317 |

Set 2
Target: Prothrombin, mature alpha-thrombin (F2, Homo sapiens, UniProt P00734)
Method: aptamer microarray, sandwich
Form: DNA with 2'F-ANA
Matrix: in vitro
Tested at: 200 nM
Setting: whole 15-mer aptamer, many near background
Added: Cy3 exosite-II aptamer, 400 nM
Direction: higher = stronger binding
Sequence: GGTTGGTGTGGTTGG
| Modification | mean fluorescence intensity |
| --- | --- |
| 2'F-ANA at 1 2 3 7 11 13 15 | 176 a.u. |
| 2'F-ANA at 1 2 3 4 8 9 11 12 13 15 | 213 a.u. |
| 2'F-ANA at 1 6 7 8 9 12 13 15 | 298 a.u. |
| 2'F-ANA at 2 3 5 6 12 13 14 15 | 54.7 a.u. |
| 2'F-ANA at 1 2 3 4 7 12 13 | 275 a.u. |
| 2'F-ANA at 1 4 5 6 7 9 11 14 | 45.7 a.u. |
| 2'F-ANA at 2 3 6 8 9 11 12 13 14 | 362 a.u. |
| 2'F-ANA at 3 4 5 7 8 12 | 271 a.u. |

Set 3
Target: HLA class I histocompatibility antigen, A alpha chain, allele A*80:01 (Homo sapiens, UniProt P04439)
Effect on: peptide-MHC binding
Form: peptide
Tested at: concentration not given
| Molecule | binding |
| --- | --- |
| AVEDFLAFF | inactive |
| GSFRKICGF | inactive |
| EGFDPRALI | inactive |

Set 4
Target: Ras GTPase-activating protein-binding protein 1, full length (G3BP1, Homo sapiens, UniProt Q13283)
Chain of UniProt Q13283 (whole entry, looked up): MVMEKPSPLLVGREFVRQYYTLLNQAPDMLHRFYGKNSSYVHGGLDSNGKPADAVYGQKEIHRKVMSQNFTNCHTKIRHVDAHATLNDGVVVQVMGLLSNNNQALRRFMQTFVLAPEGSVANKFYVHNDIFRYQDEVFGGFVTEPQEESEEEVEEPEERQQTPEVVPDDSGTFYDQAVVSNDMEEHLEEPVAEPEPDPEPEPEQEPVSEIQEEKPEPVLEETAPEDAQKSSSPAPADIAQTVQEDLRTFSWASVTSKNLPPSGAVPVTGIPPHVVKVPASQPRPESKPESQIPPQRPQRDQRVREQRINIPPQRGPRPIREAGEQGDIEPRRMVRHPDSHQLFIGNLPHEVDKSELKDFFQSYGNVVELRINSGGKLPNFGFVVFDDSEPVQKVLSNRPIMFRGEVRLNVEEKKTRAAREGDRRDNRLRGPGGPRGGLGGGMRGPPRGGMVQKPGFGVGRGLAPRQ
Method: RNA Bind-n-Seq
Form: RNA
Matrix: in vitro
Tested at: 200 nM
Setting: whole 134-nt RNA, ends assumed
Added: 150 mM KCl
Baseline: input library
Direction: higher = stronger binding
All sequences stand within: GGGAGUUCUACAGUCCGACGAUC … UGGAAUUCUCGGGUGUCAAGG
| Sequence | log2 enrichment |
| --- | --- |
| AAGUCCUGUGCUACACAUCGUAUGUACCGAAUCGGGGAGGGGAAAAAGGGGUGGGGAAAGUAUUAUGUUACGCCGUUCGGAUCUGCACUU | 0.764 |
| GCAGGAAGUAAAAACAAAUGGAAAUGCUUCGGAUAGUGGCAGGGGUGGGGGUUGCUAAGGAAAGGGUAGGAUGGGAGUGGGUAAAGAGUU | 1.08 |
| ACCAUGCAGGUGGGCAUCUUUGGGAAGUGGGGCAAGGGGGGGAUAGGGAGGGGGGUAACACUUUGGAAACAGGUGGUCCCAGGUCGUUUC | 1.26 |
| AGUCCUGUGCUACACAUCGUAUGUACCGAAUCGGGGAAAAGGAAAAGGGGAAAAGGGAAAGUAUUAUGUUACGCCGUUCGGAUCUGCACU | -0.244 |
| UCCUGUGCUACACAUCGUAUGUACCGAAUCGGGUUUGGGUUUUUUUGGGUUUUUUUGGGAAAGUAUUAUGUUACGCCGUUCGGAUCUGCA | -0.116 |
| CAAGUCCUGUGCUACACAUCGUAUGUACCGAAUCGGGGUGGGGAGGGGUUUGGGGAAAGUAUUAUGUUACGCCGUUCGGAUCUGCACUUC | 1.2 |
| UUGACCGGAGCGGCCGUCACUUUGGUACAAUCCUCAAUUACCUGCGGGAUGGGUCUGUGCCACUGCCGGAGAGUACGAGAGAACUGGGGG | -1.05 |
| UAGGAGGUGGAUUUUGUUUAUUUUUUUAGCUCAUUUCCAGGGGUGGGAAUUUUUUUUUAAUAUGUGUCAUGAAUAAAGUUGUUUUUGAAA | -0.456 |

Set 5
Target: RING finger protein unkempt homolog, zinc fingers 1-6, GST-SBP tag (UNK, Homo sapiens, UniProt Q9C0B0, residues 30-357)
Method: RNA Bind-n-Seq
Form: RNA
Matrix: in vitro
Tested at: not given
Setting: RNA with constant flanks, ends assumed
Baseline: input RNA pool
Direction: higher = stronger binding
All sequences stand within: GGGAGUUCUACAGUCCGACGAUC … CAACAGAGGAUUGAGCAUCA
Target sequence (chain): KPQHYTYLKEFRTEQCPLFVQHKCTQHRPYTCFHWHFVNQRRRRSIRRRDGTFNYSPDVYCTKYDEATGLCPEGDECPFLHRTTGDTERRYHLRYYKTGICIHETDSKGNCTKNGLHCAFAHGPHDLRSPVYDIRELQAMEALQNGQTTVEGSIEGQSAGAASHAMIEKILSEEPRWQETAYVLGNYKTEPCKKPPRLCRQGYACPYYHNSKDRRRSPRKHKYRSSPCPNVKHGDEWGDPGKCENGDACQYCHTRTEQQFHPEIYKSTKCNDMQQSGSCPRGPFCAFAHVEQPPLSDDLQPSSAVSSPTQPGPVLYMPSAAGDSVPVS
| Sequence | bound/input enrichment [ratio] |
| --- | --- |
| UCGCAAAGAUUUAAGUAUCUUAUAAGAACUGUUUGCCAGUGCAAUUAUGAGAAGCUGUUUCCGGUUAUGUGAAAGAGAUGUUUCCUCAUCUCUAAGGCUUACCAGAAGCUCUGAUUUGAA | 0.114 |
| AUCUAUGCUAACCUGUCUGAUGAAAAGGCUUUCGUGUUUUCAGUCGCCUUGGCAGAAAUAAACCGAAAAAUUAUCAAUCAAAGACUUAUUCUCUGAUACUUGUUUGCAAAAUCUGCUGAA | 0.124 |
| CGCUGGCCCAAGCUGAUGGACUCUGAUGGCCUCCAUCUCUCAGGCACGUGUGCCUUCUCUCCGUCCCUGUUUUCGGGAUGUUAUGAAUCUCAGUACUGUGGUUUGAAAGCACCAGCUUUG | 0.0844 |
| CUACUAGUUCAUGGGUCUUUGGCUUUUCCUUUGGGGCUAGAUACCUACCAUGGCUGUGUGACCGCUGCAGCUCGCUAUGGCCGGGGUCGGGUAGUUGUAACUGGUCAUAAGGUUUUAUUU | 0.218 |
| UUCUUAGACCUUUUAGACAUCUUAAUAAGAAGUCCUGGGAGUAUAAAACGAGAAGAAAAGCCCGAAGAUCUUAAGCUACUUUUUGUACAUGUACAUCAUCUUAUAAAUGAAUAUCGACCC | 0.72 |
| CUCUUUGAUCAGGCAUAUUUGAUGAGGCCUUCUAUAAUAUUUUUUGAUGAAAUAGAUGGCUCCGCUCCUGUUCGUUCUAGUAGACAAGAUCAGAUCCACAGCUCUAUAGUGUCAACCCUC | 0.294 |
| UUGCUCUCUAUUUGUUCCCUUUUGACAGAUUGCAACCCUGCGGAUCCUCUGGUCGGAAGCACCGCCACUCAGUAUUUGACCAACAGAGCAGAACAUGACAGGAUAGCCAGACAGUGGACC | 0.194 |
| UUGAAGAAAUCAGCAUUUCUAACUGAAGUGAGCCAAAAGGAAAAUUAUGCUGGGGCAAAGUUCCGUGAUCCACCUUCUCCUAGUGUUCUUCCAAAGCCUCCUAGUCACUGGAUGGGAAGC | 0.176 |

Repeated from above (set 2):
| Modification | mean fluorescence intensity |
| --- | --- |
| 2'F-ANA at 1 4 5 6 7 9 11 14 | 45.7 a.u. |
| 2'F-ANA at 3 4 5 7 8 12 | 271 a.u. |
| 2'F-ANA at 1 2 3 4 8 9 11 12 13 15 | 213 a.u. |
| 2'F-ANA at 1 2 3 4 7 12 13 | 275 a.u. |
| 2'F-ANA at 1 6 7 8 9 12 13 15 | 298 a.u. |
| 2'F-ANA at 1 2 3 7 11 13 15 | 176 a.u. |
| 2'F-ANA at 2 3 6 8 9 11 12 13 14 | 362 a.u. |
| 2'F-ANA at 2 3 5 6 12 13 14 15 | 54.7 a.u. |
